Results gathered from unrelated publications.
Each numbered part is a random draw from the data of one study; scales do not carry over between parts. Changes are numbered by the printed parent chain.

Block 1 — technique: RNA Bind-n-Seq; molecule type: RNA; matrix: in vitro; concentration: 365 nM; reference: no-protein control; direction: higher = stronger binding
Target: RNA binding protein fox-1 homolog 2, RRM domain, GST-SBP tag (RBFOX2, Homo sapiens, UniProt O43251-10, residues 100-194)
Setting: natural RNA segment, single round, ends assumed
Sequence	RBNS enrichment (R)
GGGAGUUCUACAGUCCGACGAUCGUUGCUAAUCAUAUGUUGCUUUAUCCAUAUGCUGUAUGACUCCAUAACAUGUAUGACUUUAAAUGGCUGGAACUGCUCAUAUGUGGACUAAACUAUUUUUGACAUGUUCAUGGAAUUCUCGGGUGCCAA	0.648
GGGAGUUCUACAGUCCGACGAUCAAUGUCACUAUUAAUUUAUCAUACCAUUUCCAAAAAGGGCUUUGUGCUUUUCACAUAAAAUUGAGACAGUGUAUAUUUAAUCUAAUUUAAAUUUUAAAGAGAUACUGGUAUGGAAUUCUCGGGUGCCAA	0.477
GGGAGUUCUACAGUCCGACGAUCCCCCGUCCCAGAGGCCGCUGCCCCUGAGUUCUGACACUGUGUGUUUGGGAAGGUGGGUGAGGCUGGGCAGGGCCUGGCGGAGGUGGAGUGGCCACUGGCACUUGCCUGCUUGGAAUUCUCGGGUGCCAA	0.496
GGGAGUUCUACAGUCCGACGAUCUAACACAGGGUAGGAAGAAGUGGCACAGUGUAUUGCAUUAUAUACAUUUAUCAUUGAUUUACCUAAUGUUACCUUGUAGAUUAAACACUAUUAAGUGGUAAUACUUGAAAUGGAAUUCUCGGGUGCCAA	0.561
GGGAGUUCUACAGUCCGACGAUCAACCCCACUGGGGUUGCCUUUUUAAAAAUUACUGCCAUUUCUCUGAGACCCGGGUUGAUUUGUGCUAUCUUGGGUCUUUGGCUUAAAUUAAUAGAUUUGUUCUGUGUUUGUGGAAUUCUCGGGUGCCAA	0.489
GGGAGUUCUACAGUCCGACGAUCAUCACACCACUGCACUCCAACCUGGACAACAGAGCGAGACUCCAUCUCAAAAAAAAAAAAAAAUUGUGUUGCCUCAUACGAAAUGUAUUUGGUUUUGUUGGAGAGUGUCAUGGAAUUCUCGGGUGCCAA	0.404
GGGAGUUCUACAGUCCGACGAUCGACGGGGCCAGCUGGACACACGGUGAGAUUUUCUCGUAUGUAAAUAAAAGGCAUUUUGGUAAACGUGGAGGCUGAGAUGUCUCUGUGCCUGCCCUGAGGUUGGAUGUAGCUGGAAUUCUCGGGUGCCAA	0.42
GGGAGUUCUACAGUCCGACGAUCCCCUCCUCUCCACCAUCGUCUUCUUGGCCAUGGGAGGCCUUUCCCUAAGCCAGCUGCCCCCAGAGCCACAGUUCCCCUAUGUGGAAGUGGGGCGGGCUUCAUAGAGACUUUGGAAUUCUCGGGUGCCAA	0.425

Block 2 — technique: competition protein-binding microarray; molecule type: double-stranded DNA, one strand shown; matrix: in vitro; concentration: 2 µM; together with: Pho4 competitor, 0.05 µM; direction: higher = stronger binding
Target: Centromere-binding protein 1, full length, His-tagged (CBF1, Saccharomyces cerevisiae, UniProt P17106, residues 1-351)
Chain of UniProt P17106 (whole entry, looked up): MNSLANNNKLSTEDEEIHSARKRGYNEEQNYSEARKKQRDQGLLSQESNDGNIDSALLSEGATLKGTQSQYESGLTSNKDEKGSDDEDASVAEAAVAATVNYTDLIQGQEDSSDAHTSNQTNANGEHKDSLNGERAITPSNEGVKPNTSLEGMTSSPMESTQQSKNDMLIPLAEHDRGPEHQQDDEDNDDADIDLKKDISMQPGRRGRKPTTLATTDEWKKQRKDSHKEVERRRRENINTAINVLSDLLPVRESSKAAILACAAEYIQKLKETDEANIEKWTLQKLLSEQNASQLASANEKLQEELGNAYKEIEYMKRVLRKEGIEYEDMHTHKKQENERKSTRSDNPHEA
Setting: whole 60-bp probe, lowest competitor level
Sequence	fluorescence intensity
AATGTAGCTCGTAAGCGCCTGATCCAGTAAGCCAAAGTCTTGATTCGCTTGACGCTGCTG	72.1 a.u.
CTTTCCCGATCTTGTCACTGCACTTTAGCACATTTGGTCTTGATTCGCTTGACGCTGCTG	74.9 a.u.
GGCAATTTGTATTGCCATGTGCTGCAGGCATGTCTGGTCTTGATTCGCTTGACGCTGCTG	131 a.u.
AGTAGCTAAGCGAGTCACGGGACTAAAAGGTAAAAAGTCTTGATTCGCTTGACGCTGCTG	3070 a.u.
TGTGGAGTTCAGCTTGCTACGAATACGCAGTTTTAGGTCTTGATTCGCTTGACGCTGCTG	83.3 a.u.
TGCTTTTTTCCAAAACACGTGGCAATGACTTTTGAAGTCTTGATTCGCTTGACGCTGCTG	2530 a.u.
GTCTTGTCTCATTGGAAAGTGGGTGTCCCCACTTCAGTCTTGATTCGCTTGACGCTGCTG	85.8 a.u.
GACTTTTTCCTGAGGCACATGTGTGGCCATCGTCAAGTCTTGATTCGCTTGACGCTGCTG	101 a.u.
CTTTCCCGATCTTGCTTGGTGGGTGTAGCACATTTGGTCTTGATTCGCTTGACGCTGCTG	73.4 a.u.
GTTCAGTCCTCATATCATGTGATTCCCCTGGCTCTCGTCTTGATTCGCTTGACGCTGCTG	651 a.u.
AAATAAAGAAATCGGCACGCTGGACGTAATGAGGTTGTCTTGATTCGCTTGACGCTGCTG	75.8 a.u.
GACAAAAGAAGGTTAAACGTGGCAATGACAAGAGCCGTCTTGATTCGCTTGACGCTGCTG	92.2 a.u.
GTCATAGACAGAACACACGTGGTGAGGAAAAAGGACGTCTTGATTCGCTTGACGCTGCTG	924 a.u.
CATACCCAACCTTGCTGCGTGGGTGAAGATATTTGTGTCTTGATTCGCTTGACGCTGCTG	67.2 a.u.
CTTTACCATTCCCATCACGGGAAGAGTGTGTTGGCAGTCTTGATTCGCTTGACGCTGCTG	178 a.u.
CTTTCCCGATCTTTTCACGTGCTTTTAGCACATTTGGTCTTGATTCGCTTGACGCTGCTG	1120 a.u.
TAACTCAGATTGACGCTCGTGATGGCTTCTCCACTGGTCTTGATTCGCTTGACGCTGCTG	156 a.u.
TGCGCAACAACTTTTCACGTGAGCTTATGTCTAGAAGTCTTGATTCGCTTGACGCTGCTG	1280 a.u.
GTCTTGTCTCATTGTCACTGAACTTTCCCCACTTCAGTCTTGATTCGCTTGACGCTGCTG	80.2 a.u.

Block 3 — technique: RNA Bind-n-Seq; molecule type: RNA; matrix: in vitro; concentration: not given; reference: input RNA pool; direction: higher = stronger binding
Target: RING finger protein unkempt homolog, zinc fingers 1-6, GST-SBP tag (UNK, Homo sapiens, UniProt Q9C0B0, residues 30-357)
Setting: RNA with constant flanks, human-mouse chimeric sites, ends assumed
Construct (chain): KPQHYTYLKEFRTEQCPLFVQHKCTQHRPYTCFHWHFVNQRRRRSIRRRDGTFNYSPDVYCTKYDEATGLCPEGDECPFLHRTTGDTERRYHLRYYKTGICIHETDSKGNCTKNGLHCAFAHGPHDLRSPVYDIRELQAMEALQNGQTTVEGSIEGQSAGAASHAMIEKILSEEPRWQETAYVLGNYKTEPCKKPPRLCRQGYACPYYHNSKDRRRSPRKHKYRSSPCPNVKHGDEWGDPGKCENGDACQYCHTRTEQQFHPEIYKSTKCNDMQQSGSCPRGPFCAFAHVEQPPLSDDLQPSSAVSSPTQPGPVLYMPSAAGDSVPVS
Sequence	bound/input enrichment [ratio]
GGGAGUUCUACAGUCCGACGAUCUACUCAACUUUCUUGCCACAUUUUGAAUUCCAAGACAUUAUCCCUCCAGAUGACUUCCUAACUAGUGAUGAAGAGCAAGAUUUGGUUUUAUUUGGAACUAUGAGAGGACAAGUUGUUGGACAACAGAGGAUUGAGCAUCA	0.249
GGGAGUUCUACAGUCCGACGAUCAUGGAACAUUUCGAUGCGUCACUCAGUACCUAUUUCAAGGCCUUCCUAGGCCCUCGAGAUACAAGAGUCAAAGGAUGGUUCCUCCUGGACAAUUACAUACCCACAUUUGUCUGUUCUGUUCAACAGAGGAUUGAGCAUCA	0.0827
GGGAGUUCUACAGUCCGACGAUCCUCAGAGAUGUGGCAUAUCAGUAUGUGAAAAAGGGGGCUCGUAUAUUUUUGGAAGGGAAAAUAGACUAUGGCGAGUACAUGGAUAAAAACAAUGUGAGGCGGCAAGCAACAACAAUCAUACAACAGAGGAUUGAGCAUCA	0.433
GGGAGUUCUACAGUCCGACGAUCGCCACCAGAUCCCAGAAACAUGACCCUUGCUGCCUACAAGGAGAAGAUGAAGGAGCUCCCGCUGGUGUCUCUGUUCUGCUCCUGCUUCCUGGCCGAUCCCCUGAAUAAGUCGUCCUACAACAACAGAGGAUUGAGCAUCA	0.186
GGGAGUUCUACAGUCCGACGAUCACCAUUUCUGAAUACACGGCUUUGUGUGUAGUUCACUUACGGUAUUAAAUUAUUAUUCUGCUUAGCUUAAAGUAAGGAUAAUUGCAUUUAAAGAGGUUACUGAAUGUUACUCUGAAACUUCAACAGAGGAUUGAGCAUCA	0.199
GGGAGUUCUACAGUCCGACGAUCGCAAAGGAUGAUGAGGCGGCAGCUGUUGCCCUUUCCUCUCUCGUUCAUGCUUUGGAUGAGUUAAACAUGGUCGCCAUCGUCCGAUAUGCUUAUGACAAAAGAGCUAAUCCUCAAGUUGGUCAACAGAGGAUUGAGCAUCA	0.259
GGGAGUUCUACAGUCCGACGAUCGAAUCCUACUCAGGCGGAUUUUGCAACCUGAAUGCAACAGCAGCAGCAUCUUAGUCACAGUAGGGUAGUUUUGGGGCUCUGUGGCCAUGGUUUUACUCACAUGCAGGUUUGGAAAAUGUACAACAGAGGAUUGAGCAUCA	0.778
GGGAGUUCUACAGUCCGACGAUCUGUGAACUGUCUCUUGAGAUCUAAAAACAAGAUGACUUUUCCUGGCACAUAUUCCAAAGCAUAGACUUUGUUACCUGCUGCUUAUUGUCUAAUUUACAGGGAUAUUUAAUUUUGUCAGGUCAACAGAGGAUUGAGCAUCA	0.205

Block 4 — target: CCND1, cyclin fold, Cln2 fusion (human); technique: yeast growth competition, sequencing; matrix: yeast; setting: weak parent motif; reference: not given; direction: higher = stronger binding
Parent: E2F8 docking peptide (human); FVPQRKLEVSTED
Substitution	normalised enrichment score
R5A L7A	0.0531
R5K V9L	0.0978
F1A	0.648
Q4A	-0.807
S10A	-0.0729
V2A	-0.139
R5K	0.123
V9L	-0.342
E12A	0.0705
D13A	-0.503
P3A	0.608

Block 5 — technique: RNA Bind-n-Seq; molecule type: RNA; matrix: in vitro; concentration: not given; setting: 4-mer, random 30-nt RNA, single round; together with: RocA, ADP, phosphate; reference: input library; direction: higher = stronger binding
Target: ATP-dependent RNA helicase DDX3X, helicase core (DDX3X, Homo sapiens, UniProt O00571, residues 132-607)
Chain of UniProt O00571 (132-607, looked up): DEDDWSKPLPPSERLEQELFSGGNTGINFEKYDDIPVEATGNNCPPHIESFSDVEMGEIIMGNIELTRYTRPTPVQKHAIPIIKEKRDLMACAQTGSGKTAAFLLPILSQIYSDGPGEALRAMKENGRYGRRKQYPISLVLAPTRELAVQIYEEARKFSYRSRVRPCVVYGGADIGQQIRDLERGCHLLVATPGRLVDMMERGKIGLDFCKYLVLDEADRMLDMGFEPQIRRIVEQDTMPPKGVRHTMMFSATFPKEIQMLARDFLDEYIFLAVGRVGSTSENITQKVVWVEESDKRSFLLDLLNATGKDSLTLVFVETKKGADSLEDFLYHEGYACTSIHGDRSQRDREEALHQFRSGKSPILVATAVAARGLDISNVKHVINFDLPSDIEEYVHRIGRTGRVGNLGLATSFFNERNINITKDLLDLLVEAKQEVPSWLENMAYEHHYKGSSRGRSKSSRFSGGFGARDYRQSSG
Sequence	4-mer enrichment [fold]
CAGG	0.998
CCGC	0.713
CCGU	0.75
GAGC	1.61
CUAA	0.763
CUGG	0.824
ACAG	0.824
UUUA	0.982
AUAG	1
ACCA	0.735
CGCC	0.742
CACC	0.769
ACUU	0.667

Repeated from above (block 5):
Sequence	4-mer enrichment [fold]
CCGU	0.75
ACUU	0.667
GAGC	1.61
CAGG	0.998
CUGG	0.824
AUAG	1
CCGC	0.713
CACC	0.769
